Experimental data gathered from unrelated publications.
Each numbered part is a random draw from the data of one study; scales do not carry over between parts. “And” joins repeats or separate records; there may be more than shown.
Sequence of UniProt P0C1S8 (whole entry, looked up): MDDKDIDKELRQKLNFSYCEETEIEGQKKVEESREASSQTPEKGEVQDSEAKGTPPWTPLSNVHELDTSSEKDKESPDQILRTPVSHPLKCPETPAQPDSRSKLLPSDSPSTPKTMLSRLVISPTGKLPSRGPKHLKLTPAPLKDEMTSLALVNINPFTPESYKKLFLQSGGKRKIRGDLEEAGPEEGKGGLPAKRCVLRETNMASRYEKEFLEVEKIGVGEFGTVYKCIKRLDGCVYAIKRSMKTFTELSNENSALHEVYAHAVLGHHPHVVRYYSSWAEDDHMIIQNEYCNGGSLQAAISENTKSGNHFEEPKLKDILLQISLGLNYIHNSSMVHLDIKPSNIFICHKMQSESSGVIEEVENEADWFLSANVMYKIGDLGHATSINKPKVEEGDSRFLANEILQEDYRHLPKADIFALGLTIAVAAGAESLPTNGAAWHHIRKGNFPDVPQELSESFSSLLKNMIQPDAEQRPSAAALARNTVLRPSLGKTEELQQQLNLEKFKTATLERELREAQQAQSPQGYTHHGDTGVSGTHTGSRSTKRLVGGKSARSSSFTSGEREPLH
Sequence of UniProt Q9UQ88 (whole entry, looked up): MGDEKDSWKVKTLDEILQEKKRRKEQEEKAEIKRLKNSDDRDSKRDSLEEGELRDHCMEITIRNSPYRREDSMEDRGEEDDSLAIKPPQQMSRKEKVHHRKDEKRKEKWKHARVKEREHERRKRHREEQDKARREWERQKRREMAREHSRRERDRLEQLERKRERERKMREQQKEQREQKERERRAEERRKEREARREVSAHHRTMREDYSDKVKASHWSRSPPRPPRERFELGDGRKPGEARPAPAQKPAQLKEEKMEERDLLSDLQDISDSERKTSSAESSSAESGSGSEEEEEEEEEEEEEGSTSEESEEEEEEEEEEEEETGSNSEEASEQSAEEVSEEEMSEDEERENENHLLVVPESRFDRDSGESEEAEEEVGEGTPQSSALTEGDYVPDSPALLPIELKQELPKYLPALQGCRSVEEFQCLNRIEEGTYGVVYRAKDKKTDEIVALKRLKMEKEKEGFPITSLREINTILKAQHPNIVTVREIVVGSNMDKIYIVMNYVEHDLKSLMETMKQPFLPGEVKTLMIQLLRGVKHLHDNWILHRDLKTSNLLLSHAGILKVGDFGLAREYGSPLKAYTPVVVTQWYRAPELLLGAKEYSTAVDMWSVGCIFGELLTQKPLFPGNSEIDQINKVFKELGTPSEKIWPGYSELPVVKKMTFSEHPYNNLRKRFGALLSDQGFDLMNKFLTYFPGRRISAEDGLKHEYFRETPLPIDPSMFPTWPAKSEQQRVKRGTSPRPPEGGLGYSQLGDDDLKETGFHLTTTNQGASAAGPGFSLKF
Sequence of UniProt P51817 (whole entry, looked up): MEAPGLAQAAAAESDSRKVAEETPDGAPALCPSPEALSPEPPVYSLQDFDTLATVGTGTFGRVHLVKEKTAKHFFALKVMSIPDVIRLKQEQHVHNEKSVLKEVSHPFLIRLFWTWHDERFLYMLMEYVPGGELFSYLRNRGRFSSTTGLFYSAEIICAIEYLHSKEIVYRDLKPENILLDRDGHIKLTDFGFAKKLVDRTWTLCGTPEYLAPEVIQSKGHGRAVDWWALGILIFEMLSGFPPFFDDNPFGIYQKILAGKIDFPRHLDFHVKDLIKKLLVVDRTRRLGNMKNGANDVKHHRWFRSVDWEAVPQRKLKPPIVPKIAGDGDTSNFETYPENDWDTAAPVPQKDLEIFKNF
Sequence of UniProt Q15303 (whole entry, looked up): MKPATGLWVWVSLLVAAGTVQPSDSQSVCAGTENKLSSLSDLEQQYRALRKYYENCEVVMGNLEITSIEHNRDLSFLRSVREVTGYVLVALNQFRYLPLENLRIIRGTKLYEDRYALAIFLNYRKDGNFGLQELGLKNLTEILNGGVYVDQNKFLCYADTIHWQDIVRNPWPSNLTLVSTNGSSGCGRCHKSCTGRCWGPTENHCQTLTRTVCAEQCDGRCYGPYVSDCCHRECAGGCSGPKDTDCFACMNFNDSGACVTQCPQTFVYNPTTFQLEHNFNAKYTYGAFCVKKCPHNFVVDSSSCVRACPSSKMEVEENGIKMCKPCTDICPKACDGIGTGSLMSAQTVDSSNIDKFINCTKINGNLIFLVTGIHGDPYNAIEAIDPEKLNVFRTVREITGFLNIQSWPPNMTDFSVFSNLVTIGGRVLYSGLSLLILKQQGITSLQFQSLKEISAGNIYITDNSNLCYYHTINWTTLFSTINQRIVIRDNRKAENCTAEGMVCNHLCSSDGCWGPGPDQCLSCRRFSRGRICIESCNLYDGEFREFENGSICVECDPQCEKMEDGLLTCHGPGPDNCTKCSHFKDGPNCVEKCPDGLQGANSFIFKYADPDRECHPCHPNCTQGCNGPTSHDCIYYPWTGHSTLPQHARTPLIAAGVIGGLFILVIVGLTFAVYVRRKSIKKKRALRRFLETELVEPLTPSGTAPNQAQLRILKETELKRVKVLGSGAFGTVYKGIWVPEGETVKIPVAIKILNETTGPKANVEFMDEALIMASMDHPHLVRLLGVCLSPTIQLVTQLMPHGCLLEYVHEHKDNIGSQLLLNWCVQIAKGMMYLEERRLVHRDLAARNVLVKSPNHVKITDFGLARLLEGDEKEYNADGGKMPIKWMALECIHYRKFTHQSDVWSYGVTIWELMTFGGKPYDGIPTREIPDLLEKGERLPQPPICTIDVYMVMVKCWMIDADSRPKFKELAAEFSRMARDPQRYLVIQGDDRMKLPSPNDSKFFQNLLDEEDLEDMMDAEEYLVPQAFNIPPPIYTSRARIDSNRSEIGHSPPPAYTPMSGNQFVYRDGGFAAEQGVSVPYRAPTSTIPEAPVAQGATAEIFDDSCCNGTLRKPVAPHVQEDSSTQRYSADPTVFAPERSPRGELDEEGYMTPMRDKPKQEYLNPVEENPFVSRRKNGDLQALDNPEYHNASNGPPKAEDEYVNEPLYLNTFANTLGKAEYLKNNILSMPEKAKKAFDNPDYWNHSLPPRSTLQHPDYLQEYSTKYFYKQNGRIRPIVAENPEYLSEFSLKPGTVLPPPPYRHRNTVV
Sequence of UniProt Q8WXR4 (whole entry, looked up): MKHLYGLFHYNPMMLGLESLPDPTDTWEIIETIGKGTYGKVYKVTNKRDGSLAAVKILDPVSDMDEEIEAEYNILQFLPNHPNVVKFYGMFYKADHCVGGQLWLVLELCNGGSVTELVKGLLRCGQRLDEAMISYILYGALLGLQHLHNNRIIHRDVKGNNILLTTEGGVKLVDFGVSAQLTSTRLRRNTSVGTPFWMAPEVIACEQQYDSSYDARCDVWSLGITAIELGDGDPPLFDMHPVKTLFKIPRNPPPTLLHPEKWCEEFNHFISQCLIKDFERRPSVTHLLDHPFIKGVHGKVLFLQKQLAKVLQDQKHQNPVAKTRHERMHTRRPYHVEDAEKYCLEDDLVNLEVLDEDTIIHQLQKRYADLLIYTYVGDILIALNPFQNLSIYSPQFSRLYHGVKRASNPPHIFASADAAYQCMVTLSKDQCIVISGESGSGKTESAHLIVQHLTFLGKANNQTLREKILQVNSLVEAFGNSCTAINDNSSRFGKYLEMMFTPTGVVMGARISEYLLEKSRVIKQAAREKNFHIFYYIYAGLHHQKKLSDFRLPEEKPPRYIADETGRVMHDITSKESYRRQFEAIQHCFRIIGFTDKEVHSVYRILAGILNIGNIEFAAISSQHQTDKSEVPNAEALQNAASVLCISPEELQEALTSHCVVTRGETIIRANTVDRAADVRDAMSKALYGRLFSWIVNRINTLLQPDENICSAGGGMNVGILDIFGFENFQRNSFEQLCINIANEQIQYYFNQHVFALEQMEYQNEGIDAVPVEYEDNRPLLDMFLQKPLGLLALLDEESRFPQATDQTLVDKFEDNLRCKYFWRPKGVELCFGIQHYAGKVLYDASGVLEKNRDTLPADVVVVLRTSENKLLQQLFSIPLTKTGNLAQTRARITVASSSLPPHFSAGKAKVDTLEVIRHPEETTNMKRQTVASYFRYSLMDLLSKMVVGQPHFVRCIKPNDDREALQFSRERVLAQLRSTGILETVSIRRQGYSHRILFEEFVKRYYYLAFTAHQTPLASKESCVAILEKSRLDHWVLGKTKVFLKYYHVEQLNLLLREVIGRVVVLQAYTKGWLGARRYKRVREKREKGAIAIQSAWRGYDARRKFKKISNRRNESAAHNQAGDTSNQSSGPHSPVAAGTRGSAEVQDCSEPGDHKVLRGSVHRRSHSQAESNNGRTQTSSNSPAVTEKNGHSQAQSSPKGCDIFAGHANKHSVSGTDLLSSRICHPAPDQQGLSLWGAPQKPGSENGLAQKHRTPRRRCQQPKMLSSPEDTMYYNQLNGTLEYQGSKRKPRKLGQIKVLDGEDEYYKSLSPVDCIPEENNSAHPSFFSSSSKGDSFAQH

Series 1
Target: Bromodomain-containing protein 4, BD1 (BRD4, Homo sapiens, UniProt O60885)
Tested at: 50 µM
Compound | inhibition [%]
CC(C)NC[C@@H](C(=O)N1CCN(c2ncnc3c2[C@H](C)C[C@H]3O)CC1)c1ccc(Cl)cc1 | -3.95
CC[C@H](Nc1ncnc2[nH]cnc12)c1nc2cccc(F)c2c(=O)n1-c1ccccc1 | -0.75
COc1cc2c(Oc3ccc(NC(=O)C4(C(=O)Nc5ccc(F)cc5)CC4)cc3F)ccnc2cc1OCCCN1CCOCC1 | 47.1
CCCCCCCCCCCCCCCCCCOP(=O)([O-])OC1CC[N+](C)(C)CC1 | -17.4
Cc1cc(Nc2nc(N[C@@H](C)c3ncc(F)cn3)ncc2Cl)n[nH]1 | 19.4
COc1cc(Nc2ncc3c(n2)-c2ccc(Cl)cc2C(c2c(F)cccc2OC)=NC3)ccc1C(=O)O | 13.1
O=c1[nH]ccc2c(S(=O)(=O)N3CCCNCC3)cccc12 | 11.9
CN(C)C/C=C/C(=O)Nc1cc2c(Nc3ccc(F)c(Cl)c3)ncnc2cc1O[C@H]1CCOC1 | 13.7
COc1ccc2[nH]c([S+]([O-])Cc3ncc(C)c(OC)c3C)nc2c1 (centres unmarked) | 3.75
CN1CCC(CNc2ccc3ncc(-c4cccc(OC(F)(F)F)c4)n3n2)CC1 | 27.1
C=CC(=O)N1CCC[C@@H](n2nc(-c3ccc(Oc4ccccc4)cc3)c3c(N)ncnc32)C1 | 33.4
NC(=O)Nc1cc(-c2cccc(F)c2)sc1C(=O)N[C@H]1CCCNC1 | 16.6
Cc1c[nH]c(-c2cnc(NCCNc3ccc(C#N)cn3)nc2-c2ccc(Cl)cc2Cl)n1 | 26.1
CCc1cc2c(cc1N1CCC(N3CCOCC3)CC1)C(C)(C)c1[nH]c3cc(C#N)ccc3c1C2=O | 1.5
CC(C)(C)c1cnc(CSc2cnc(NC(=O)C3CCNCC3)s2)o1 | 15.4
Cc1ccc(NC(=O)c2ccc(CN3CC[C@H](N(C)C)C3)c(C(F)(F)F)c2)cc1Nc1nccc(-c2cncnc2)n1 | 42.9

Series 2
Target: Mitogen-activated protein kinase 8 (MAPK8, Homo sapiens, UniProt P45983)
Sequence of UniProt P45983 (whole entry, looked up): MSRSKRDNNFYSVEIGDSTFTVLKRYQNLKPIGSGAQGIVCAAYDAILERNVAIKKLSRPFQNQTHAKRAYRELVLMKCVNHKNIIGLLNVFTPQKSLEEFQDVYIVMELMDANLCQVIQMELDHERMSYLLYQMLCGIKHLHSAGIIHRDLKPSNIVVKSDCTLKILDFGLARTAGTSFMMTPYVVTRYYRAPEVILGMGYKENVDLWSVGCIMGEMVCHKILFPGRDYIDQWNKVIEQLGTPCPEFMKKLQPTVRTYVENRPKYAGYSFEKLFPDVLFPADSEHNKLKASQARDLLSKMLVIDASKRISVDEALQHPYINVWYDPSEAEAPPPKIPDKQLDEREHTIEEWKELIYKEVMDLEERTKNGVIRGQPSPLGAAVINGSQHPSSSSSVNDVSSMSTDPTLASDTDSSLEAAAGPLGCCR
Observed: enzyme activity
Mode: inhibitor
Tested at: 0.5 µM
Relative to: control
SMILES | remaining activity
O=C1Nc2ccccc2/C1=C\c1c(Cl)[nH]c2ccccc12 | 93.5%
COc1ccc2c(c1)c(C1=C(c3c[nH]c4ccccc34)C(=O)NC1=O)cn2CCCN(C)C | 80%
Oc1cccc(-c2nc(N3CCOCC3)c3oc4ncccc4c3n2)c1 | 89.8%
N#Cc1cnc2cnc(NCc3cccnc3)cc2c1Nc1ccc(F)c(Cl)c1 | 110%
CN(C)S(=O)(=O)c1ccc2c(c1)/C(=C/c1cc3c([nH]1)CCCC3)C(=O)N2 | 91.1%
O=C1Cc2c([nH]c3ccc(Br)cc23)-c2ccccc2N1 | 87.5%
CCCCc1c(-c2ccc(OC)cc2)[nH]c2nccnc12 | 74.5%
COc1ccc(COc2ccc(Cc3cnc(N)nc3N)cc2OC)cc1 | 91.9%
c1ccc2c(-c3ccncc3)c[nH]c2c1 | 100%
O=c1cc(N2CCOCC2)oc2c(-c3ccccc3)cccc12 | 106%
O=C1NC(=O)c2c1c1c3ccccc3[nH]c1c1[nH]c3cc(Br)ccc3c21 | 85.2%
O=C1NC(=O)c2c1c1c3ccccc3[nH]c1n1cncc21 | 83.9%
Cc1ccc(S(=O)(=O)/C=C/C#N)cc1 | 74.7%
c1ccc(-c2n[nH]c3c2oc2ccccc23)cc1 | 79.6%
O=C1Nc2ccc(Br)cc2/C1=C/c1cc2c([nH]1)CCCC2 | 107%
O=Nc1c(-c2c(O)[nH]c3cc(Br)ccc23)[nH]c2ccccc12 | 98.7%
CN1CCN(c2ccc3nc(-c4c(N)c5c(F)cccc5[nH]c4=O)[nH]c3c2)CC1 | 106%
O=C(c1cc2cc(O)ccc2[nH]1)c1cc2cc(O)ccc2[nH]1 | 112%
COc1cccc(-c2cc(=O)c3ccccc3o2)c1N | 95.3%
CCCNC(=O)Nc1ccc(Oc2ncnc3cc(OC)c(OC)cc23)cc1Cl | 107%
Cc1cc(Nc2cc(N3CCN(C)CC3)nc(Sc3ccc(NC(=O)C4CC4)cc3)n2)[nH]n1 | 95.4%

Series 3
SMILES: Cc1nccc(COC(=O)N2C[C@@H]3[C@@H](CNC(=O)c4ccc5[nH]nnc5c4)[C@@H]3C2)n1
Method: competition with immobilised ligand
Tested at: 1 µM
target | observed | remaining binding
EGFR (Homo sapiens, UniProt P00533, L858R/T790M) | cell-free assay | 100%
Tyrosine-protein kinase ABL1, phosphorylated (ABL1, Homo sapiens, UniProt P00519, Y253F) | cell-free assay | 93%
Aurora kinase B (AURKB, Homo sapiens, UniProt Q96GD4) | cell-free assay | 93%
ROCK2 (Homo sapiens, UniProt O75116) | cell-free assay | 86%
CAMKK2 (Homo sapiens, UniProt Q96RR4) | cell-free assay | 100%
VRK2 (Homo sapiens, UniProt Q86Y07) | cell-free assay | 29%
CAMK2D (Homo sapiens, UniProt Q13557) | cell-free assay | 100%
STK39 (Homo sapiens, UniProt Q9UEW8) | cell-free assay | 79%
CDK11A (Homo sapiens, UniProt Q9UQ88) | binding | 100%
KIT (Homo sapiens, UniProt P10721, D816H) | cell-free assay | 99%
PIP4K2B (Homo sapiens, UniProt P78356) | cell-free assay | 100%
KDR (Homo sapiens, UniProt P35968) | cell-free assay | 80%
WEE2 (Homo sapiens, UniProt P0C1S8) | cell-free assay | 100%
Aurora kinase A (AURKA, Homo sapiens, UniProt O14965) | cell-free assay | 91%
EIF2AK2 (Homo sapiens, UniProt P19525) | cell-free assay | 100%
FLT3 (Homo sapiens, UniProt P36888, D835V) | cell-free assay | 79%
NEK7 (Homo sapiens, UniProt Q8TDX7) | cell-free assay | 100%
MAPKAPK5 (Homo sapiens, UniProt Q8IW41) | cell-free assay | 97%
PRKX (Homo sapiens, UniProt P51817) | cell-free assay | 100%
Myosin-IIIb (MYO3B, Homo sapiens, UniProt Q8WXR4) | binding | 100%
FER (Homo sapiens, UniProt P16591) | cell-free assay | 100%
PKN2 (Homo sapiens, UniProt Q16513) | cell-free assay | 100%
RIOK3 (Homo sapiens, UniProt O14730) | cell-free assay | 100%
LYN (Homo sapiens, UniProt P07948) | cell-free assay | 100%
ERBB4 (Homo sapiens, UniProt Q15303) | cell-free assay | 100%

Series 4
Cell line: mouse MPNST tumor cells
Method: high-content nuclear imaging
Item: cell number
Tested at: 10 µM
Time: 12 h
Notes: mean of 2 replicates
Relative to: plate mean
Direction: higher = more cells
Compound | nuclei count
CNCCCC1c2ccccc2C=Cc2ccccc21 | -3.5 z-score
Fc1ccc(CNc2ncnc3ccc(F)cc23)cc1 | 0.383 z-score
Nc1ncn([C@@H]2O[C@H](CO)[C@@H](O)[C@H]2O)c(=O)n1 | -2.43 z-score
CN(C(=O)CCCOc1ccc2[nH]c(=O)ccc2c1)C1CCCCC1 | -0.0715 z-score
Cc1ccc(C(=O)c2ccc(CC(=O)O)n2C)cc1 | 0.491 z-score
COc1cc(N)c(Cl)cc1C(=O)OCCN1CCCCC1 | -1.29 z-score
CCCn1c(=O)c2nc(C34CC5CC(CC3C5)C4)[nH]c2n(CCC)c1=O | 3.1 z-score
C1N2CN3CN1CN(C2)C3 | 0.152 z-score
CN1CCN(C(c2ccccc2)c2ccc(Cl)cc2)CC1 (centres unmarked) | -0.747 z-score
O=C(CCCN1CCC(O)(c2ccc(Br)cc2)CC1)c1ccc(F)cc1 | -2.55 z-score
CC1(C)CCC(C)(C)c2cc(C3(c4ccc5cc(C(=O)O)ccc5c4)SCCS3)ccc21 | 0.655 z-score
NCCc1c[nH]cn1 | 2 z-score and 0.439 z-score
Cc1nc(Nc2ncc(C(=O)Nc3c(C)cccc3Cl)s2)cc(N2CCN(CCO)CC2)n1 | -5.06 z-score
O=C(Nc1ccccc1)N1CCC(Cc2cnc3ccccc3c2)CC1 | 0.788 z-score
Cc1ncsc1-c1ccc(CNC(=O)[C@@H]2C[C@H](O)CN2C(=O)[C@@H](NC(=O)C2(C#N)CC2)C(C)(C)C)cc1 | 0.0966 z-score

A few entries again (series 2):
SMILES | remaining activity
CN(C)S(=O)(=O)c1ccc2c(c1)/C(=C/c1cc3c([nH]1)CCCC3)C(=O)N2 | 91.1%
O=C1Cc2c([nH]c3ccc(Br)cc23)-c2ccccc2N1 | 87.5%
COc1ccc(COc2ccc(Cc3cnc(N)nc3N)cc2OC)cc1 | 91.9%
COc1cccc(-c2cc(=O)c3ccccc3o2)c1N | 95.3%
c1ccc(-c2n[nH]c3c2oc2ccccc23)cc1 | 79.6%
O=C1Nc2ccc(Br)cc2/C1=C/c1cc2c([nH]1)CCCC2 | 107%
